Measured values collected from several papers.
Each line is one published result; not all experiments were run side by side. “And” joins repeats or separate records; there may be more than shown. ± gives the spread as reported.
Nuclear receptor subfamily 2 group C member 2 ligand-binding domain: Nuclear receptor subfamily 2 group C member 2, ligand-binding domain (Homo sapiens, UniProt P49116)
UniProt P27361, sequence (whole entry, looked up): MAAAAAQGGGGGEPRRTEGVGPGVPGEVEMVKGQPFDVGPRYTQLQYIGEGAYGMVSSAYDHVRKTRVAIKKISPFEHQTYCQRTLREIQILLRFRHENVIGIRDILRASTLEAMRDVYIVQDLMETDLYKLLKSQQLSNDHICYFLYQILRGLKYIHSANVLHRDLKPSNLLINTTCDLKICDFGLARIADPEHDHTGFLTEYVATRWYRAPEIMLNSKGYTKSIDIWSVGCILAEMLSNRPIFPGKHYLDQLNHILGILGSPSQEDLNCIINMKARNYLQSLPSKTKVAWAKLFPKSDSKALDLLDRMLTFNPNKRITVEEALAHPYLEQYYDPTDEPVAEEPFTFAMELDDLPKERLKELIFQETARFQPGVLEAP
UniProt P11388, sequence (whole entry, looked up): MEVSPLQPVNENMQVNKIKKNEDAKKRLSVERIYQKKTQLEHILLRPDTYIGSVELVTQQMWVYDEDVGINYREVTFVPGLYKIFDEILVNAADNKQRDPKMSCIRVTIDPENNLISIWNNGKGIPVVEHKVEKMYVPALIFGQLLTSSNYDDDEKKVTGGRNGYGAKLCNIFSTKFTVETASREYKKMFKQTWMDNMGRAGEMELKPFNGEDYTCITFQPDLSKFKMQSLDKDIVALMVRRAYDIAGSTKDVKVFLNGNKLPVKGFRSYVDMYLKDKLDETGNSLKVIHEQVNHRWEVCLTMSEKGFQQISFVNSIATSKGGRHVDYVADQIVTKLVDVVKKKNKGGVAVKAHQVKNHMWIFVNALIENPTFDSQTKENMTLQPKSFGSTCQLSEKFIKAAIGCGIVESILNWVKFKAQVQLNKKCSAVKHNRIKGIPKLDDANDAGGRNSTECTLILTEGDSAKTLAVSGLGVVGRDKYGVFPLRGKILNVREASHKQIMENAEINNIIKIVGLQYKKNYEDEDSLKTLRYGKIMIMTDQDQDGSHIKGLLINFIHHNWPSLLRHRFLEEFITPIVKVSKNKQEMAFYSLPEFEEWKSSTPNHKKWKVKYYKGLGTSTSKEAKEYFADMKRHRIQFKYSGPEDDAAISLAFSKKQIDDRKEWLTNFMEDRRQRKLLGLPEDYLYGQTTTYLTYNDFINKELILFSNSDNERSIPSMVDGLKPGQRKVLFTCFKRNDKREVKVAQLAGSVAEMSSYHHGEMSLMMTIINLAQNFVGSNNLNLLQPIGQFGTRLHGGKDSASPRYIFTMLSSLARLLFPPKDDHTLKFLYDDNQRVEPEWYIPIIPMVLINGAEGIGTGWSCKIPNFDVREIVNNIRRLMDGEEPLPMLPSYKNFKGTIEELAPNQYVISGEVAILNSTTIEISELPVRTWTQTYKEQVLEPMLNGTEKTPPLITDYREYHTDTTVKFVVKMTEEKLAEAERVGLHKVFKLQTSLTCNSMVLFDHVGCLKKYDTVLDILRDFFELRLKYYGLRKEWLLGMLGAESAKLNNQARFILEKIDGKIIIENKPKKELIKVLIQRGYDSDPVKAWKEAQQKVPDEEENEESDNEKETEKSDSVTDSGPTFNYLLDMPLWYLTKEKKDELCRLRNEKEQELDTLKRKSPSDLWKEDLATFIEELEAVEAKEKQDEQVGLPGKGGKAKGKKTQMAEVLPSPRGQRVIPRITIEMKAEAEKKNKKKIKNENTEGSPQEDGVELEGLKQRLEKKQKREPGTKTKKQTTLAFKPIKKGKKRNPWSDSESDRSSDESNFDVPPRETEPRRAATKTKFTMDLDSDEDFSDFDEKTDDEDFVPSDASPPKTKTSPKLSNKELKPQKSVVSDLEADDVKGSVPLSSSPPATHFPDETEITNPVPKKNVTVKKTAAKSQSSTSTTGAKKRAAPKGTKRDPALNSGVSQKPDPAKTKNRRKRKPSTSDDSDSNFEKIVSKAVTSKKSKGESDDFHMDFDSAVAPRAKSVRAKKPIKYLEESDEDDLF
UniProt Q9UH17, sequence (whole entry, looked up): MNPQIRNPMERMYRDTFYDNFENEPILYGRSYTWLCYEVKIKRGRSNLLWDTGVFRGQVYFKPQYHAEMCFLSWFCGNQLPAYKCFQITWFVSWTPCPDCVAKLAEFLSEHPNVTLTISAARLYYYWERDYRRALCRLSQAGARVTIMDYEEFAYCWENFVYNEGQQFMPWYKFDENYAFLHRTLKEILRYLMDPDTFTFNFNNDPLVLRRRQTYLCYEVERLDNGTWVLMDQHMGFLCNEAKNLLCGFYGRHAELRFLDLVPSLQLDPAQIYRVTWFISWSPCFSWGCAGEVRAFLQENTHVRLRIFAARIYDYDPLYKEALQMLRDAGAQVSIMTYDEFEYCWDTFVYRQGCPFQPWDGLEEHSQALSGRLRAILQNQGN
UniProt P49116, sequence (whole entry, looked up): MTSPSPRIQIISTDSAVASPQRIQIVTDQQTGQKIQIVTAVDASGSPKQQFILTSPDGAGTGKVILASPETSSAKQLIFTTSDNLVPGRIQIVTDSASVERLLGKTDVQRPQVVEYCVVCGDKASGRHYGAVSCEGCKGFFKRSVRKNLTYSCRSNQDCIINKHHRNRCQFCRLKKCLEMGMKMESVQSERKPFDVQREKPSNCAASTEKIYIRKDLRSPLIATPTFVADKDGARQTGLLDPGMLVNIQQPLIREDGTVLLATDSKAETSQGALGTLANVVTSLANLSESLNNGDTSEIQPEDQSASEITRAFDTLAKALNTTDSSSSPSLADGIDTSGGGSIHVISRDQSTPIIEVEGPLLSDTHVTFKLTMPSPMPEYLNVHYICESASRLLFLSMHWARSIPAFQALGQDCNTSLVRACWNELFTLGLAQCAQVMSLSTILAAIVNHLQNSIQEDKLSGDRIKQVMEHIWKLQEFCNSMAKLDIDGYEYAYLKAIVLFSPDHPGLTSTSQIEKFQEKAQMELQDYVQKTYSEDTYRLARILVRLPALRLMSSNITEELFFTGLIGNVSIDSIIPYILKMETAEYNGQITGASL
UniProt Q9BYT3, sequence (whole entry, looked up): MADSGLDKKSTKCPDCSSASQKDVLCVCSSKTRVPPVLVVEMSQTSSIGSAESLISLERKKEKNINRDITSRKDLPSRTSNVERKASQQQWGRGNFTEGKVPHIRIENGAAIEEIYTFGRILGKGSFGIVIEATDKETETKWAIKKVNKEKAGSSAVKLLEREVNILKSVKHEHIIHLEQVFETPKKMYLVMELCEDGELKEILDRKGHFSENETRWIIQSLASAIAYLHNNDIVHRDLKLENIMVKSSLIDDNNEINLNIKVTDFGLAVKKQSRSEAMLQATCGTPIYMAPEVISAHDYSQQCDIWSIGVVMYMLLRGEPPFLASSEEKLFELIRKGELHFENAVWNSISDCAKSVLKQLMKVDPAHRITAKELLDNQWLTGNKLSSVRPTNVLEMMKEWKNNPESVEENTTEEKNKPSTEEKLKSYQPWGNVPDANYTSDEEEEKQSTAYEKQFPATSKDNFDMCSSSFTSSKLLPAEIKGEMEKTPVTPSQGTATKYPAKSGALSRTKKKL
UniProt P40763, sequence (whole entry, looked up): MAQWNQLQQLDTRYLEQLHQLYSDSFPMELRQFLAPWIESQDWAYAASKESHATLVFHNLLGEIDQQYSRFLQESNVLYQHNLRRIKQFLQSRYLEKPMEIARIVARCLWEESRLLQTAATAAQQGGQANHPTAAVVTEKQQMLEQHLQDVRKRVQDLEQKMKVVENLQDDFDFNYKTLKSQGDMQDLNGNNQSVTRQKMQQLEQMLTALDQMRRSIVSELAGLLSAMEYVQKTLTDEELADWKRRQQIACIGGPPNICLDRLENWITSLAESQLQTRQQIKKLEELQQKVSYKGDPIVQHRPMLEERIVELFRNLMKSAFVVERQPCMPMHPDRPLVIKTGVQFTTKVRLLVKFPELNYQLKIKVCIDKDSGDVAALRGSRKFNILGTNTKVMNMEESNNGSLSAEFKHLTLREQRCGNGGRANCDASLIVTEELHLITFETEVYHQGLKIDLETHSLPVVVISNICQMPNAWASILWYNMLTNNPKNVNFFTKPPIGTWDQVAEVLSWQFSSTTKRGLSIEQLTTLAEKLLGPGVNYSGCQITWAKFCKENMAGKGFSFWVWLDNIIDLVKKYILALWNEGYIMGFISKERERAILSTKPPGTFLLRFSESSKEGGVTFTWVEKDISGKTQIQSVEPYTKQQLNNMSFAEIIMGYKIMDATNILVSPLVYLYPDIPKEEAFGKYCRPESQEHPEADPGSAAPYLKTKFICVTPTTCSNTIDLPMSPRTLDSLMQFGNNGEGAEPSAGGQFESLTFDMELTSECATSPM
UniProt P63208, sequence (whole entry, looked up): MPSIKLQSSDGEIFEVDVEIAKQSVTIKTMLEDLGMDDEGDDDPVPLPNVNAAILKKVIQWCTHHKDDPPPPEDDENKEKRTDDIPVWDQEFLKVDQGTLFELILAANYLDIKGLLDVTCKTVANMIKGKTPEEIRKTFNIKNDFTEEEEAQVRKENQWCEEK
UniProt P04746, sequence (whole entry, looked up): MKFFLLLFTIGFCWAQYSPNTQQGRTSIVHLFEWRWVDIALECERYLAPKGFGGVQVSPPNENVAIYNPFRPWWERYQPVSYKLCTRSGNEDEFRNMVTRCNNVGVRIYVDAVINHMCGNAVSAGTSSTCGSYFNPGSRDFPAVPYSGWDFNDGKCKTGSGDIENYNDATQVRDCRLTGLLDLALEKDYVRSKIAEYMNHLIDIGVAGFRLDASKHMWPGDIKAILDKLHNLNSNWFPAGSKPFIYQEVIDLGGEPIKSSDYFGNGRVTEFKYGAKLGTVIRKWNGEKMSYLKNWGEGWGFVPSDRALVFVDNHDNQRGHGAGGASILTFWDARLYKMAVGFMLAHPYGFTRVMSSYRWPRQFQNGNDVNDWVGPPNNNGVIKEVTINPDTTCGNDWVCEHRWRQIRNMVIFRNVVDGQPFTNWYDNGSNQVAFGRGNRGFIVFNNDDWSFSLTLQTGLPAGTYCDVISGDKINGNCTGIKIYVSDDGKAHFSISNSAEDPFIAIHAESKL

Structure (SMILES) | tested on | assay | system | setting | scale | measurement | result
CN=C(NC)NCCC[C@H](NC(=O)[C@H](C)N)C(=O)N[C@H](C(=O)N[C@@H](CCCCN)C(=O)N[C@@H](CCC(N)=O)C(=O)N[C@H](C(=O)N[C@@H](C)C(=O)N[C@@H](CCCNC(=N)N)C(=O)N[C@@H](CCCCN)C(=O)N[C@@H](CO)C(=O)O)[C@@H](C)O)[C@@H](C)O | Transcriptional regulator ATRX (ATRX, Homo sapiens, UniProt P46100, F284Y/K251R) | isothermal titration calorimetry | – | concentration not given, pH 7.5, 25.0 °C | – | binding entropy | 8.33 cal/mol/K
COc1cc2c(c(O)c1OC)C(=O)c1c(cc(C)c(O[C@@H]3O[C@H](CO)[C@@H](O)[C@H](O)[C@H]3O)c1OC)C2=O | HepaRG co-cultured with HK-2 | MTT | – | 16.67 µM, 48 h | baseline: untreated control | cell viability | 89.6 ± 4.78%
N#Cc1ccn2c(-c3ccncc3)c(-c3ccc(F)cc3)nc2c1 | Serine/threonine-protein kinase CBK1 (CBK1, Candida albicans, UniProt Q5AP53) | kinase binding, competitor, MIB/MS competition, measured: CBK1 | Candida albicans cell lysate | 100 nM | baseline: DMSO | log2 fold change | -0.0437
C=CC(=O)N1CCC(COCC(=O)N2CCN(c3nc(-c4cnc(N)nc4C(F)F)nc(N4CCOC[C@@H]4C)n3)CC2)CC1 | STK33 (Homo sapiens, UniProt Q9BYT3) | KINOMEscan | – | 1 µM | – | remaining binding | 98%
Nc1[nH]nc2nnc(-c3c(-c4ccccc4)nn4ccccc34)cc12 | MAPK3 (Homo sapiens, UniProt P27361) | ADP-Glo | – | 10 µM, with: MBP substrate | – | kinase activity | 14.2% and 14.6% and 11.6%
O=c1nc(SCc2cc(F)cc(C(F)(F)F)c2)nc(SCc2ccc3nc(Cl)ccc3c2)[nH]1 | TOP2A (Homo sapiens, UniProt P11388) | ATPase activity | – | 15.6 µM, with: ATP 0.075 mM | – | ATP hydrolysis rate | 0.602 µM/min and 0.539 µM/min
O=C(O)[C@@H]1CCCN1c1ncnc2[nH]cnc12 (racemic) | S-phase kinase-associated protein 1 (SKP1, Homo sapiens, UniProt P63208) | binding, affinity selection mass spectrometry | – | – | baseline: other proteins in batch | fold enrichment | 1.1
Cc1onc(-c2ccccc2)c1-c1ccc(S(N)(=O)=O)cc1 | COS-7 | – | – | 100 µM, 24 h, 0.1% DMSO, unit not given | baseline: control | confluence | 0.75 ± 0.05
O=C1OC(c2ccccc2)=N/C1=C\c1ccccc1 | Pancreatic alpha-amylase (Homo sapiens, UniProt P04746) | inhibitor, Lineweaver-Burk | – | 300 ppm, with: starch substrate | – | Vmax | 0.059 mg/mL/min
Cc1ccc(OC[C@@H]2CN(CCN3CCc4ccccc43)CCO2)cn1 | HTR4 (Homo sapiens, UniProt Q13639) | radioligand binding | – | concentration not given | – | inhibition | 2.4%
CC(=O)c1ccc2cc(S(=O)(=O)Nc3ccccn3)ccc2c1 | STAT3 (Homo sapiens, UniProt P40763) | tyrosine phosphorylation, inhibitor, ELISA, measured: phospho-Tyr705 | – | – | – | Hill slope | -0.422
C[C@H](CCC(=O)O)[C@H]1CC[C@H]2[C@@H]3[C@H](O)C[C@@H]4C[C@H](O)CC[C@]4(C)[C@H]3CC[C@]12C | Nuclear receptor subfamily 2 group C member 2 ligand-binding domain | SPR imaging | – | 600 nM | – | koff | 3.12e-08 s⁻¹
COc1c(O[C@@H]2O[C@H](CO)[C@@H](O)[C@H](O)[C@H]2O)c(C)cc2c1C(=O)c1c(O)cccc1C2=O | HepaRG co-cultured with HK-2 | MTT | – | 266.67 µM, 24 h | baseline: untreated control | cell viability | 23 ± 2.88%
CCC1(O)CCCN(C(=O)c2ccc(-c3ccc(F)c(NC(=O)CCl)c3)cc2)C1 (centres unmarked) | DNA dC->dU-editing enzyme APOBEC-3B, C-terminal domain (Homo sapiens, UniProt Q9UH17) | covalent adduct, intact protein MS | – | 1 h, 10-fold excess, 250 µM | – | unmodified protein | 20% and 35%
CN(C(=O)n1cnc(-c2ccc[n+]([O-])c2)c1)C1CCCCC1 | Faah (Mus musculus, UniProt O08914) | enzyme activity, inhibitor | NMRI mice, brain | oral, 1 h | – | ED50 | ~0.094 mg/kg
COC1=C(OC)C(=O)C(CC=C(C)C)=C(C)C1=O | FSP1 F15A mutant | substrate | – | with: 100 µM co-substrate | – | Km | 9.48 ± 2.55 µM
O=C(O)c1cc2c(c3nc4c(O)cccc4nc13)O[C@@H]1[C@H](O)c3nc4cccc(O)c4nc3C[C@H]21 | Eukaryotic translation initiation factor 4E, with 4E-BP1 (EIF4E, Homo sapiens, UniProt P06730) | click chemistry enzyme-linked | – | – | – | Hill slope | ~-1
CCCCCCCC(=O)c1c(O)cc(O)cc1CC(=O)OCC | COS-7 | – | – | 10 µM, 24 h, 0.1% DMSO, unit not given | baseline: vehicle control | necrotic cells | 0.63 ± 0.27
N#C[C@@H]1CCCN1C(=O)CNC12CC3CC(CC(O)(C3)C1)C2 | Nuclear receptor subfamily 2 group C member 2 ligand-binding domain | SPR imaging | – | 600 nM | – | koff | 1.4e-06 s⁻¹
CCCCC[C@H]1CN(c2cccc(OC(F)(F)F)c2)C(=O)CN1Cc1cncn1Cc1ccc(Br)cc1 | Cryptococcus neoformans farnesyltransferase | enzyme activity, inhibitor, fluorescence | – | with: 1 µM FPP, 0.5 µM dansylated peptide | – | IC50 | 160 ± 20 nM
